# Experimental data gathered from unrelated publications.
# ± marks the error that the study gave.
# ADORA1: Adenosine receptor A1 (ADORA1, Homo sapiens, UniProt P30542)
# SLC10A2: Ileal sodium/bile acid cotransporter (SLC10A2, Homo sapiens, UniProt Q12908)
# ALB: Albumin (ALB, Homo sapiens, UniProt P02768)
# T1: pre-miR-21 RNA (Homo sapiens); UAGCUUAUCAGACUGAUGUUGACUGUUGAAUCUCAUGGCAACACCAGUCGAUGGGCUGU
Compound,tested on,assay,test system,setting,how to read,measurement,result
[64Cu+2].c1cnc(CNCc2ccc(CN3CCCN4CCNCCCN(CC4)CC3)cc2)nc1,CXCR4,,"NOD/SCID mouse, U87 and U87-stb-CXCR4 xenografts, spleen","iv, 90 min, ex vivo",,tissue uptake,15 ± 2.15 %ID/g
COc1nc(OCc2cccc(-c3ccccc3)c2C)ccc1CNCCNC(=O)CCCc1cn(CCC(=O)N[C@@H](CC(=O)O)C(=O)N[C@@H](Cc2c[nH]cn2)C(=O)N[C@@H](CC(C)C)C(=O)N[C@@H](C)C(=O)N[C@@H](CO)C(=O)N[C@@H](CC(C)C)C(=O)N[C@@H](Cc2c[nH]c3ccccc23)C(=O)N[C@@H](Cc2c[nH]c3ccccc23)C(=O)NCC(=O)N[C@H](C(=O)N[C@@H](CCC(=O)O)C(=O)N[C@@H](CC(C)C)C(=O)O)[C@@H](C)O)nn1,"Programmed cell death 1 ligand 1 (CD274, Homo sapiens, UniProt Q9NZQ7)","protein degradation, degrader, Western blot",HepG2,3 µM,,onset time of degradation,8 h
O=C(Nc1ccc(-c2nc(-c3ccccc3)cs2)cc1)C1CCN(Cc2cccnc2)CC1,"Bifunctional epoxide hydrolase 2 (Ephx2, Mus musculus, UniProt P34914)","inhibitor, fluorescent substrate",,concentration not given,,activity,inactive
CC(C)(O)[C@@H]1CC[C@](C)([C@H]2[C@@H](O)C[C@@]3(C)[C@@H]4C[C@H](O)[C@H]5C(C)(C)[C@@H](O)CC[C@@]56C[C@@]46CC[C@]23C)O1,"Glycosyltransferase GT1 (Astragalus membranaceus, UniProt A0A977WMR2, G146V)",substrate,,"3-OH glucosylation, added: UDP-glucose",,kcat/Km,not detected
CC(=O)N(CC(=O)N(C)[C@@H](C)C(=O)N(Cc1c[nH]c2cc(Cl)ccc12)[C@@H](C)C(=O)N(C)[C@@H](C)C(=O)N(CCC(C)(C)C)[C@@H](C)C(=O)N1CCNCC1)Cc1ccccc1,"E3 ubiquitin-protein ligase Mdm2, N-terminal domain 17-125 (MDM2, Homo sapiens, UniProt Q00987)",isothermal titration calorimetry,PBS,"concentration not given, 25 °C",,binding entropy term (-TΔS),-1.09 kcal/mol
CCNC(=O)[C@H]1O[C@@H](n2cnc3c(NCCCNC(=O)CCCCCNC(=O)COc4ccc(/C=C/C5=[N+]6C(=Cc7ccc(-c8cccs8)n7[B-]6(F)F)C=C5)cc4)ncnc32)[C@H](O)[C@@H]1O,ADORA1,"radioligand binding, whole-cell binding",CHO-A1,"2 h, added: [3H]DPCPX","reference: specific binding, 10 µM XAC",maximal inhibition,55.4 ± 2.5%
Cc1ccc(C(=O)Nc2ccc(CN)cc2)c(O)c1,human TMPRSS2 and HAT,jump dilution,,"concentration not given, 15 min preincubation, 1/100 dilution",,activity recovered after dilution,> 80%
N[C@@H](Cc1ccc(O)c(I)c1)C(=O)O,"Iodotyrosine deiodinase (IYD, Thermotoga neapolitana, UniProt B9K712, M41F)","binding, FMN fluorescence quenching",,25 °C,,"Kd ratio, M41F over wild type",10 fold
C[C@H](CCC(=O)N[C@@H](CCC(=O)Nc1ccc(F)nc1)C(=O)O)[C@H]1CC[C@H]2[C@@H]3[C@H](O)C[C@@H]4C[C@H](O)CC[C@]4(C)[C@H]3CC[C@]12C,SLC10A2,"transport, substrate",ASBT-MDCK cells,unit not given,reference: taurocholate Jmax,Jmax,0.307
CCCCCCCCO[C@@H]1O[C@H](CO)[C@H](O)C[C@H]1O[C@@H]1O[C@@H](C)[C@@H](O)[C@@H](O)[C@@H]1O,"Histo-blood group ABO system transferase (ABO, Homo sapiens, UniProt P16442, G235S/G268A/L266M/R176G)",methyl-TROSY NMR titration lineshape analysis,,apo enzyme,,kon,7.9e+06 M⁻¹ s⁻¹
CC1=C(/C=C/C=C\C=C\C(C)=C\C=O)C(C)(C)CCC1,"Rhodopsin (RHO, Homo sapiens, UniProt P08100, T289P)",immunoblot,661W rod opsin T289P,2.5 µM,reference: mature over immature,mature over immature ratio,~6
CC(Cc1ccc(Cl)cc1)=C(c1ccc(Cl)cc1)c1ccc(OCCN(C)C)cc1,"Estrogen receptor (ESR1, Homo sapiens, UniProt P03372)","reporter gene, agonist, yeast estrogen screen",,1 µM,reference: DMSO,fold activation,1.09 ± 0.05 fold
O=C1CCC(N2C(=O)c3ccc(N4CCC(C(=O)N5CCC(CCN6CCC(CNC(=O)c7cccc(-c8noc(C(F)(F)F)n8)c7)(c7nc(-c8ccccc8)cs7)CC6)CC5)CC4)cc3C2=O)C(=O)N1 (centres unmarked),"Histone deacetylase 7 (HDAC7, Homo sapiens, UniProt Q8WUI4)","degrader, Western blot",NB-4,"3 µM, 12 h",,maximum degradation,> 90%
CCNC(=O)[C@H]1O[C@@H](n2cnc3c(NCCCCCNC(=O)CCCCCNC(=O)COc4ccc(/C=C/C5=[N+]6C(=Cc7ccc(-c8cccs8)n7[B-]6(F)F)C=C5)cc4)ncnc32)[C@H](O)[C@@H]1O,ADORA1,CRE reporter gene,CHO-A1,"Gi response, added: forskolin",,log Kd minus log IC50,1.93
N=C(N)NCCC[C@@H]1NC(=O)[C@H](Cc2c[nH]c3ccccc23)NC(=O)[C@@H](CC2CCCCC2)NC(=O)[C@@H]2CCCN2C(=O)[C@@H](NC(=O)CCc2ccccc2)CCCNC1=O,,,"C57BL/6J mice, brain","subcutaneous, 1 mg/kg, two-compartment model",,distribution rate constant k12,0.53 h⁻¹
O=c1c2sccc2n(CC2COc3ccccc3O2)c(=O)n1O (centres unmarked),"Flap endonuclease 1 (Homo sapiens, UniProt P39748, R100A)",inhibitor,,"100 µM, 37 °C, added: double-flap substrate DF1",,maximal single-turnover rate,~0.0004 min⁻¹
CC(C)C(=O)NC1CC=C(c2cc3c(Nc4cc5ncsc5cc4F)ncnc3s2)CC1 (racemic),"Receptor-interacting serine/threonine-protein kinase 1 (RIPK1, Homo sapiens, UniProt Q13546)",enzyme activity,,1 µM,reference: untreated,remaining activity,99 ± 2%
C[C@H](CCC(=O)N[C@@H](CCC(=O)Nc1cccc(O)c1)C(=O)O)[C@H]1CC[C@H]2[C@@H]3[C@H](O)C[C@@H]4C[C@H](O)CC[C@]4(C)[C@H]3CC[C@]12C,SLC10A2,"transport efficiency, substrate, LC-MS/MS",ASBT-MDCK,,,normalized Jmax/Kt,0.141 µM⁻¹
O=C1Nc2cccnc2N(C2CC2)c2ncccc21,ALB,ITC,,"concentration not given, 298 K",,binding enthalpy,-1 kcal/mol
CCCCCCOc1ccc(C(=O)OCC[N+]2(C)CC=CCC2)cc1 (centres unmarked),"Muscarinic acetylcholine receptor M3 (CHRM3, Homo sapiens, UniProt P20309)","antagonist, item: inositol phosphates",CHO,"M3, added: carbachol",,cooperativity factor,0.0014 ± 0.0003
CC(=O)N[C@@H]1[C@@H](O[C@@H]2O[C@H](C(=O)O)[C@@H](O[C@@H]3O[C@H](COS(=O)(=O)O)[C@@H](OS(=O)(=O)O)[C@H](O[C@@H]4O[C@H](C(=O)O)[C@@H](O[C@@H]5O[C@H](COS(=O)(=O)O)[C@@H](OS(=O)(=O)O)[C@H](O[C@@H]6O[C@H](C(=O)O)[C@@H](OS(=O)(=O)O)[C@H](OS(=O)(=O)O)[C@H]6OS(=O)(=O)O)[C@H]5NC(C)=O)[C@H](OS(=O)(=O)O)[C@H]4OS(=O)(=O)O)[C@H]3NC(C)=O)[C@H](OS(=O)(=O)O)[C@H]2OS(=O)(=O)O)[C@H](OS(=O)(=O)O)[C@@H](COS(=O)(=O)O)O[C@H]1N=[N+]=[N-],"Bone morphogenetic protein 2 (Homo sapiens, UniProt P12643)",FP competition,,,"reference: cpd over monovalent azide analogue, higher = stronger binding",binding affinity ratio,11 fold
Cc1ccc(C(=O)Nc2ccc(CP(=O)(O)O)cc2CP(=O)(O)O)cc1NC(=O)c1cccc(NC(=O)Nc2cccc(C(=O)Nc3cc(C(=O)Nc4ccc(CP(=O)(O)O)cc4CP(=O)(O)O)ccc3C)c2)c1,"Coagulation factor XI (F11, Homo sapiens, UniProt P03951)","enzyme activity, inhibitor",,"50 µM, added: S-2366 substrate",,Km,290 ± 50 µM
N#Cc1c(N)nc(SCc2ncc[nH]2)c(C#N)c1-c1cccc(O)c1,ADORA1,"cAMP, agonist",,,,Emax,102%
C=CCC(=N)NCCC[C@H](N)C(=O)O,"Nitric oxide synthase 1 (Mus musculus, UniProt Q9Z0J4)","cGMP accumulation, inhibitor",mouse aorta and hippocampus,,reference: aorta over hippocampus,IC50 ratio,1.6
CCCNCC(=O)O,ALB,circular dichroism,,0.12 mM,,β-sheet content,17.3%
N=C(N)NCCC[C@H](NC(=O)[C@H](CC(=O)O)NC(=O)[C@@H]1CSCCCC(=O)NCC(=O)N[C@@H](Cc2c[nH]cn2)C(=O)N[C@H](Cc2ccccc2)C(=O)N[C@@H](CCCNC(=N)N)C(=O)N[C@H](Cc2c[nH]c3ccccc23)C(=O)N1)C(=O)N[C@@H](Cc1ccccc1)C(=O)NCC(N)=O,"Melanocortin receptor 3 (MC3R, Homo sapiens, UniProt P41968)","cAMP accumulation, agonist",HEK293 expressing MC3R,10 µM,reference: MT-II,activation,75%
COc1ccc(-c2ocnc2-c2cc(Br)c(OC)c(OC)c2)cc1OCCCC(=O)NO,"Histone deacetylase 4 (HDAC4, Homo sapiens, UniProt P56524)","inhibitor, fluorogenic",,IC50 and twice IC50,reference: untreated,enzyme activity,no effect
COc1ccc(C(/C=C\CN2CCCC(C(=O)O)C2)(c2ccc(OC)cc2)c2ccc(OC)cc2)cc1 (centres unmarked),"Sodium- and chloride-dependent glycine transporter 1, isoform GlyT1c (SLC6A9, Homo sapiens, UniProt P48067)","inhibitor, MS binding competition",,"1.0 µM, pH 7.5, 22 °C, compound mixture deconvolution, added: Org24598 15 nM",,remaining specific binding,42.1 ± 3.1%
CCC(=C(c1ccc(O)cc1)c1ccc(OCCN(C)CCOCCOCCOCCOCCOCCOCCOCCOCCOCCOCCOCCN(C)CCOc2ccc(C(=C(CC)c3ccccc3)c3ccc(O)cc3)cc2)cc1)c1ccccc1 (mixture of isomers),"Estrogen receptor beta (ESR2, Homo sapiens, UniProt Q92731)",radioligand competition binding,,"concentration not given, Z-Z/Z isomer form, added: [3H]estradiol tracer",reference: estradiol,relative binding affinity,7.17 ± 1.4%
COc1ccc(NC(=O)CCCOc2ccc(-c3nc4cc(-c5ccc(N6CCN(C)CC6)cc5)ccc4[nH]3)cc2)cc1OCc1cn2ccccc2n1,"T1, pre-miR-21 RNA (Homo sapiens)","RNase L cleavage, competitor, RNase L cleavage assay",,added: RIBOTAC TGP-21-C1-3,,IC50,12 µM
CC[C@H]1[C@@H](O)[C@@H]2[C@H](CC[C@]3(C)[C@@H]([C@H](C)CCOS(=O)(=O)[O-])CC[C@@H]23)[C@@]2(C)CC[C@@H](O)C[C@@H]12.[Na+],,,"ob/ob NASH mice, plasma","oral, 3 mg/kg once daily, 8 wk",,plasma ALT,478 ± 33.9 U/L
[64Cu+2].c1ccc(CNCc2ccc(CN3CCCN4CCNCCCN(CC4)CC3)cc2)nc1,CXCR4,,"NOD/SCID mouse, U87 and U87-stb-CXCR4 xenografts, kidney","iv, 240 min, ex vivo",,tissue uptake,35.4 ± 4.75 %ID/g

# For quick reference, copied from above:
Compound,tested on,assay,test system,setting,how to read,measurement,result
C[C@H](CCC(=O)N[C@@H](CCC(=O)Nc1ccc(F)nc1)C(=O)O)[C@H]1CC[C@H]2[C@@H]3[C@H](O)C[C@@H]4C[C@H](O)CC[C@]4(C)[C@H]3CC[C@]12C,SLC10A2,"transport, substrate",ASBT-MDCK cells,unit not given,reference: taurocholate Jmax,Jmax,0.307
CCCCCCCCO[C@@H]1O[C@H](CO)[C@H](O)C[C@H]1O[C@@H]1O[C@@H](C)[C@@H](O)[C@@H](O)[C@@H]1O,"Histo-blood group ABO system transferase (ABO, Homo sapiens, UniProt P16442, G235S/G268A/L266M/R176G)",methyl-TROSY NMR titration lineshape analysis,,apo enzyme,,kon,7.9e+06 M⁻¹ s⁻¹
CC1=C(/C=C/C=C\C=C\C(C)=C\C=O)C(C)(C)CCC1,"Rhodopsin (RHO, Homo sapiens, UniProt P08100, T289P)",immunoblot,661W rod opsin T289P,2.5 µM,reference: mature over immature,mature over immature ratio,~6
CC(Cc1ccc(Cl)cc1)=C(c1ccc(Cl)cc1)c1ccc(OCCN(C)C)cc1,"Estrogen receptor (ESR1, Homo sapiens, UniProt P03372)","reporter gene, agonist, yeast estrogen screen",,1 µM,reference: DMSO,fold activation,1.09 ± 0.05 fold
